Experimental data of several laboratories.
Numbered parts are unrelated; each lists some results of a single study. Changes are numbered by the printed parent chain.

Set 1 — technique: universal PBM; form: double-stranded DNA, one strand shown; matrix: in vitro; concentration: not given; reading: higher = stronger binding
Target: Sal-like protein 4, full length isoform B (SALL4, Homo sapiens, UniProt Q9UJQ4-2, residues 1-616)
Setting: 8-mer, flanks averaged, mean of replicates
The E-score of `TACGCAGA` is reported as 0.0648.
With `GAGAGTAC` the E-score was -0.0759.
With `GAAGAGAA` the E-score was 0.164.
For `AAAGGCGG`, the E-score was 0.00621.
`ACGTCAAT` gave an E-score of 0.0671.
`AGTTCACG` gave an E-score of -0.0574.
`GTTAACGA` has an E-score of 0.0503.
For `AGTCGAGA`, the E-score was 0.0693.
For `CCGCTAGA`, the E-score was -0.202.
`AAACTCTC` gave an E-score of -0.0485.
`ATCGTCGC` has an E-score of -0.0157.
`CGTAATCA` gave an E-score of 0.234.
For `GACTCGAA`, the E-score was -0.156.
`AAGCATCG` gave an E-score of 0.0121.
`AGTCGATG` gave an E-score of 0.00263.
The E-score of `CGGAGCCC` is reported as -0.38.
For `CGCAAACC`, the E-score was -0.164.
`AGGAATGC` has an E-score of -0.0925.
The E-score of `GTCGCATA` is reported as 0.167.
The E-score of `CGTTGCCA` is reported as 0.0351.
With `ATAGTTAC` the E-score was 0.278.
For `GTCCGAGA`, the E-score was -0.173.
With `GACTTTGC` the E-score was -0.177.
With `CAGACTTA` the E-score was 0.00855.
For `AATACCGT`, the E-score was 0.157.

Set 2 — technique: RNA Bind-n-Seq; form: RNA; matrix: in vitro; concentration: 100 nM; relative to: input RNA pool; reading: higher = stronger binding
Target: RING finger protein unkempt homolog, zinc fingers 1-6, SBP tag (UNK, Homo sapiens, UniProt Q9C0B0, residues 30-357)
Sequence of UniProt Q9C0B0 (30-357, looked up): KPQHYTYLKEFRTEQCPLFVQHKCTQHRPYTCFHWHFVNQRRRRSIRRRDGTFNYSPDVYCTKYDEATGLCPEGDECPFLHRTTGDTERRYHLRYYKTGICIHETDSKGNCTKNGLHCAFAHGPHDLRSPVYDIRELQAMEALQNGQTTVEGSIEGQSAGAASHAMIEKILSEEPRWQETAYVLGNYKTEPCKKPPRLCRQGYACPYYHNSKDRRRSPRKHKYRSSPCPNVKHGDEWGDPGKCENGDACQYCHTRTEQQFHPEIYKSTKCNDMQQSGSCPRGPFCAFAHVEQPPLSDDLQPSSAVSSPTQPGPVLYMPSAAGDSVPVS
Setting: RNA with constant flanks, vertebrate orthologous sites, ends assumed
Shared flanks, not repeated: GGGAGUUCUACAGUCCGACGAUC … CAACAGAGGAUUGAGCAUCA
For `ACCCCGAUUUUAGAUGUGAUAUCUAGGCUUUCAUUCCAGUUGUUUUUGUCUUUUCUUGUUUAGAUACCACUUUUAAAUUCUUGCAUUUUAGUAAGAAAGCUACCUUUUUAUGGAUGUUAG`, the bound/input enrichment was 0.818 ratio.
With `GUCCGUUCGCUCAGUCCCCAGCCAGGGUGGCAGGACCGAGGUUUCACCGAGGAACUGCAUUUCAAAAAUAUUUUUUUUUAACUGUCGAACAGGAAGCGACAUGGCUGAAACAGCCUCUGA` the bound/input enrichment was 0.495 ratio.
`GUUUGGCCUACCCAGCCUUCCUCUUAGGAGCGGCUUCAUUUAUGACAAAUGUACUAUAUCGAGUUGAGCUUAUUAUUUUUUUAUUAUCCUGUAAAUAAAGAUGGCACCUCCUACAUUAAA` has a bound/input enrichment of 1.1 ratio.
With `CCCUCUGAACCCCAUAUCUUCUGUCUCAUAGUGCAGAAGUAGUCUUUUCAAUUAUAUUAUUAAUGGACUUGUUUUAAUUUUAGGGAAACUUUCAGUACAGAUACUGUGAGCUUACAUGGA` the bound/input enrichment was 3.59 ratio.
For `GUGUGUGGGGUAGCCUUGGCCCCUGCCUUGGCCUUGCCUCUCCUCCCUGUCACCUGCCCCUAGUUAUUUUUUUUGACCACCACGUGAUUAUGGUCGGUGCUGCCUCCCCCGACCUGCUCA`, the bound/input enrichment was 8.23 ratio.
`GAAGUCCUGGCGGCUUGUAUUACCUCAGUGAGGUAAGGUCUCCUAGCAUUCGACCGGGACCAACCCCUCCAUCCUCAGAAUCUCCACGUGUAAUUUUAUUUCUUUUAUACUUGCUCAUCU` has a bound/input enrichment of 0.216 ratio.
`CCAUUGUAUCCUGCUGUAUAAUAAGCAAUCUUAGCAUUUAUCAACUGUUGAUACAAAUGUUAGUCCCUAACCACUUUUUAUAUGUUUUAAAACUUUGAAAUUCAAGUGUACCUGCCAUAA` gave a bound/input enrichment of 0.858 ratio.
For `UAAAAGAAUCAGAGCAGCAUGGGCUGUGGAAAAAUGAGCUUUGCAUUUUUUAUAUUUAAAUAGGAUACUUUUAUAUGAUGGGUGCUUUGAGUGUGAAUGCAGCAAGCUUUCCUUUUCAGA`, the bound/input enrichment was 1.09 ratio.

Set 3 — target: CCNA2, cyclin fold, Cln2 fusion (human); technique: yeast growth competition, sequencing; matrix: yeast; setting: strong parent motif; relative to: not given; reading: higher = stronger binding
Parent: RB1 docking peptide (human); PKPLKKLRFDIEG
Under “normalised enrichment score”, `PKPLMKLRFDIEG [K5M]` is recorded as 0.365.
`VKPLKKLRFDIEG [P1V]`: “normalised enrichment score” 0.824.
Under “normalised enrichment score”, `PKPLNKLRFDIEG [K5N]` is recorded as 0.636.
For `PKPLKKLRFDIAG [E12A]`, “normalised enrichment score” read 0.226.
`PKPLKKLRFDFEG [I11F]` — result for “normalised enrichment score”: 0.973.
`PKPLKKCRFDIEG [L7C]`: “normalised enrichment score” 0.815.
Under “normalised enrichment score”, `PWPLKKLRFDIEG [K2W]` is recorded as 0.902.
For `PKPLKKLRFNIEG [D10N]`, “normalised enrichment score” read 1.54.
Under “normalised enrichment score”, `PKPLKKLRRDIEG [F9R]` is recorded as 0.228.
Under “normalised enrichment score”, `PKPLKKLRFLIEG [D10L]` is recorded as 1.29.
Under “normalised enrichment score”, `PKPMKKLRFDIEG [L4M]` is recorded as 2.02.
Under “normalised enrichment score”, `KKPLKKLRFDIEG [P1K]` is recorded as 1.5.
Under “normalised enrichment score”, `PKPLKKLRFDAEG [I11A]` is recorded as 1.74.
For `PKPLKMLRFDIEG [K6M]`, “normalised enrichment score” read 0.798.
`PKPLKKLRFSIEG [D10S]`: “normalised enrichment score” 1.09.
For `PKPLKDLRFDIEG [K6D]`, “normalised enrichment score” read 0.246.
Under “normalised enrichment score”, `PKPLKKTRFDIEG [L7T]` is recorded as 0.0755.
Under “normalised enrichment score”, `PKPLKKLRFDIYG [E12Y]` is recorded as -0.245.
For `PKNLKKLRFDIEG [P3N]`, “normalised enrichment score” read 0.348.
For `PKYLKKLRFDIEG [P3Y]`, “normalised enrichment score” read 0.568.
`PKPLKKLRPDIEG [F9P]`: “normalised enrichment score” -0.283.
`PKPLKKLRFDIHG [E12H]` — result for “normalised enrichment score”: 0.769.
Under “normalised enrichment score”, `PKPLKKLRFDIMG [E12M]` is recorded as 1.39.
`PKPLKRLRFDIEG [K6R]` — result for “normalised enrichment score”: 1.59.
Under “normalised enrichment score”, `PKPNKKLRFDIEG [L4N]` is recorded as 1.84.

Set 4 — technique: RNA Bind-n-Seq; form: RNA; matrix: in vitro; concentration: 365 nM; relative to: no-protein control; reading: higher = stronger binding
Target: RNA binding protein fox-1 homolog 2, RRM domain, GST-SBP tag (RBFOX2, Homo sapiens, UniProt O43251-10, residues 100-194)
Setting: natural RNA segment, single round, ends assumed
Shared flanks, not repeated: GGGAGUUCUACAGUCCGACGAUC … UGGAAUUCUCGGGUGCCAA
Residues (chain): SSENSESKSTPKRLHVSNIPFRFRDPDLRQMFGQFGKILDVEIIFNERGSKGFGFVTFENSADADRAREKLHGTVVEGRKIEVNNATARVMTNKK
For `UUCCACAUUAAUUAGAUUUUCUUGCAGUUUUUUUAUGGCAUUUUUUUAAAGAUGCCCUAAGUGUUGAAGAAGAGUUUGCAAAUGCAACAAAAUAUUUAAUUACCGGUUGU`, “RBNS enrichment (R)” read 1.14.
Under “RBNS enrichment (R)”, `AUGUUGGCCAGGCUGAUUAACUCCUGACCUCAGGUGAUCCACCUUUCUCGGCCUCCCAAAGUGCUGGGAUUACGGGUGUGAGCCACCGUGCCCGGCCUGCAAACACAUUU` is recorded as 0.44.
`GAGUGGGAAGGAAGGGGUUGAGACGCGUGCUUUGAGAGCCUGUGAGGCUGCUCCGUCCUUGCCAGCUGCUCCCUAGUCCUGAGUGGUCCUUGGUGAGGAGCAGCAAGAUG`: “RBNS enrichment (R)” 0.411.
`AGAUGCUGAUGUAGCCAGGCCAUGCCGGAAGGAGCAGGGUGAAGCUUCCCCUCUCCCUACAAAUGGAACCUUGUGGAAACAGGAUGCUAAACACCUUCUGAUGGAGCUGU` — result for “RBNS enrichment (R)”: 0.26.
Under “RBNS enrichment (R)”, `AUAGACAAAACCUUUAUCCCGCGUGCUUUGCUUCACCUUGUGCUAUAUAGCUCUUUGGCUCGUGAACCUAAUUGUAAACUUUCAGGUAUUUUUGUACAAAUAAGGGACUG` is recorded as 0.6.
`GGUUAGUAGCUACUCCCCGAGGCCCCAACCCGGGAAAUACUGCAGUGUUCCUUCCUGCAGGCCUUGGAGCCCUGACCAGGCCAGUCCUGGGCACUGCUUAGAUGGCUGUU` — result for “RBNS enrichment (R)”: 0.157.
`GCCAGGACGCAAGGGGAGCAAUGAAUGUCUGUGUCUGAUAUGCUCCUCCCAGGUUGGUGUCCCACUGGACAGGUCACAAUGCAGGCUGCCUGCUUUGCCUCCUCCUGUGU`: “RBNS enrichment (R)” 2.61.
Under “RBNS enrichment (R)”, `AUUGUCCAGAGUGUCAUCCAGACAGCCGUCGACCAGUUUGCACGUACAGAAACAGCCCCCGAAACCCACGCUUCUGAUUUACAGAAUCAGGUUCCUGUGAUGCAGGCUGA` is recorded as 1.49.

For quick reference, copied from above (set 3):
Under “normalised enrichment score”, `PKPLKKLRRDIEG [F9R]` is recorded as 0.228.
Under “normalised enrichment score”, `PKPLKKLRFLIEG [D10L]` is recorded as 1.29.
Under “normalised enrichment score”, `PKPMKKLRFDIEG [L4M]` is recorded as 2.02.
Under “normalised enrichment score”, `KKPLKKLRFDIEG [P1K]` is recorded as 1.5.
Under “normalised enrichment score”, `PKPLKKLRFDAEG [I11A]` is recorded as 1.74.
For `PKPLKMLRFDIEG [K6M]`, “normalised enrichment score” read 0.798.
`PKPLKKLRFSIEG [D10S]`: “normalised enrichment score” 1.09.
For `PKPLKDLRFDIEG [K6D]`, “normalised enrichment score” read 0.246.
